Measured values collected from several papers.
Compare with care: the assays were run in different laboratories. Numbers after ± are the reported error.

CC(C)C[C@H](NC(=O)[C@H](Cc1ccc(O)cc1)NC(=O)[C@@H](CCCNC(=N)N)NC(=O)[C@@H](CO)NC(=O)[C@H](Cc1ccccc1)NC(=O)[C@H](CC1CCCCC1)NC(=O)[C@H](CC(=O)O)NC(=O)CN1CCCN2CCN(CCCN(CC(=O)O)CC2)CC1)C(=O)N[C@@H](Cc1c[nH]c2ccccc12)C(=O)N[C@@H](CO)C(=O)O [copper-64 labelled]  tissue uptake (female NMRI nude mice, bone; 22 h p.i.): 0.8 ± 0.3 %ID/g
CCCC[C@H](NC(=O)COCCOCCNC(=O)CN1CCN(CC(=O)O)CCN(CC(=O)O)CC1)C(=O)N[C@H]1CC(=O)NCCCC[C@@H](C(N)=O)NC(=O)[C@H](Cc2c[nH]c3ccccc23)NC(=O)[C@H](CCCNC(=N)N)NC(=O)[C@@H](Cc2ccccc2)NC(=O)[C@H](Cc2c[nH]cn2)NC1=O [copper-64 labelled]  tissue uptake (C57 mice, pancreas; intravenous, 0.37 MBq, 4 h): 0.17 ± 0.11 %ID/g
N=C(N)NCCC[C@@H]1NC(=O)[C@H](CCCCNC(=O)CC[C@H](NC(=O)CC[C@H](NC(=O)CN2CCN(CC(=O)O)CCN(CC(=O)O)CCN(CC(=O)O)CC2)C(=O)N[C@@H](CCC(=O)NCCCC[C@@H]2NC(=O)[C@@H](Cc3ccccc3)NC(=O)[C@H](CC(=O)O)NC(=O)CNC(=O)[C@H](CCCNC(=N)N)NC2=O)C(=O)NCCCC[C@@H]2NC(=O)[C@@H](Cc3ccccc3)NC(=O)[C@H](CC(=O)O)NC(=O)CNC(=O)[C@H](CCCNC(=N)N)NC2=O)C(=O)NCCCC[C@@H]2NC(=O)[C@@H](Cc3ccccc3)NC(=O)[C@H](CC(=O)O)NC(=O)CNC(=O)[C@H](CCCNC(=N)N)NC2=O)NC(=O)[C@@H](Cc2ccccc2)NC(=O)[C@H](CC(=O)O)NC(=O)CNC1=O [indium-111 labelled]  tissue uptake (female athymic nu/nu mice, lungs; intravenous, 0.5 h): 4.29 ± 1.26 %ID/g
CCCC[C@H](NC(=O)CNC(=O)CNC(=O)CN1CCN(CC(=O)O)CCN(CC(=O)O)CCN(CC(=O)O)CC1)C(=O)N[C@H]1CC(=O)NCCCC[C@@H](C(N)=O)NC(=O)[C@H](Cc2c[nH]c3ccccc23)NC(=O)[C@H](CCCNC(=N)N)NC(=O)[C@@H](Cc2ccccc2)NC(=O)[C@H](Cc2c[nH]cn2)NC1=O [lutetium-177 labelled]  tissue uptake (C57 mouse, female, whole blood; intravenous, 0.037 MBq, 0.5 h): 2.98 ± 0.38 %ID/g
N=C(N)NCCC[C@@H]1NC(=O)[C@H](CCCCNC(=O)CNC(=O)CNC(=O)CNC(=O)CC[C@H](NC(=O)CNC(=O)CNC(=O)CNC(=O)CC[C@H](NC(=O)CN2CCN(CC(=O)O)CCN(CC(=O)O)CCN(CC(=O)O)CC2)C(=O)NCC(=O)NCC(=O)NCC(=O)N[C@@H](CCC(=O)NCC(=O)NCC(=O)NCC(=O)NCCCC[C@@H]2NC(=O)[C@@H](Cc3ccccc3)NC(=O)[C@H](CC(=O)O)NC(=O)CNC(=O)[C@H](CCCNC(=N)N)NC2=O)C(=O)NCC(=O)NCC(=O)NCC(=O)NCCCC[C@@H]2NC(=O)[C@@H](Cc3ccccc3)NC(=O)[C@H](CC(=O)O)NC(=O)CNC(=O)[C@H](CCCNC(=N)N)NC2=O)C(=O)NCC(=O)NCC(=O)NCC(=O)NCCCC[C@@H]2NC(=O)[C@@H](Cc3ccccc3)NC(=O)[C@H](CC(=O)O)NC(=O)CNC(=O)[C@H](CCCNC(=N)N)NC2=O)NC(=O)[C@@H](Cc2ccccc2)NC(=O)[C@H](CC(=O)O)NC(=O)CNC1=O [indium-111 labelled]  tissue uptake (female athymic nu/nu mice, muscle; intravenous, 111 kBq, 4 h): 0.8 ± 0.11 %ID/g
CCCC[C@H](NC(=O)CCCCCCCNC(=O)CN1CCN(CC(=O)O)CCN(CC(=O)O)CC1)C(=O)N[C@H]1CC(=O)NCCCC[C@@H](C(N)=O)NC(=O)[C@H](Cc2c[nH]c3ccccc23)NC(=O)[C@H](CCCNC(=N)N)NC(=O)[C@@H](Cc2ccccc2)NC(=O)[C@H](Cc2c[nH]cn2)NC1=O [copper-64 labelled]  tissue uptake (C57 mice, kidney; intravenous, 0.37 MBq, 2 h): 3.29 ± 0.61 %ID/g
CC(C)C[C@H](NC(=O)CN1CCN(CC(=O)O)CCN(CC(=O)O)CC1)C(=O)N[C@@H](CC(C)C)C(=O)N[C@@H](CC(C)C)C(=O)N[C@@H](CC(C)C)C(=O)N[C@@H](CCCNC(=N)N)C(=O)N[C@H](C(=O)N[C@@H](CCCCN)C(=O)N[C@@H](CCCNC(=N)N)C(N)=O)C(C)C [copper-64 labelled]  tissue uptake (CD1 mouse, male, heart; intravenous, 15 min, blocked, unlabelled peptide 0.1 µmol): 4.3 ± 0.7 %ID/g
CSCC[C@H](NC(=O)[C@H](CC(C)C)NC(=O)[C@H](Cc1c[nH]cn1)NC(=O)CNC(=O)[C@@H](NC(=O)[C@H](C)NC(=O)[C@H](Cc1c[nH]c2ccccc12)NC(=O)[C@H](CCC(N)=O)NC(=O)CCOCCOCCOCCOCCNC(=O)CN1CCN(CC(=O)O)CCN(CC(=O)O)CCN(CC(=O)O)CC1)C(C)C)C(N)=O [indium-111 labelled]  tissue uptake (Swiss nu/nu mouse, male, PC-3 tumour xenograft, colon; intravenous, 10 pmol, 4 h): 3.6 ± 0.4 %ID/g
N=C(N)NCCC[C@@H]1NC(=O)[C@H](CCCCNC(=O)CNC(=O)CNC(=O)CNC(=O)CC[C@H](NC(=O)CNC(=O)CNC(=O)CNC(=O)CN2CCN(CC(=O)O)CCN(CC(=O)O)CCN(CC(=O)O)CC2)C(=O)NCC(=O)NCC(=O)NCC(=O)NCCCC[C@@H]2NC(=O)[C@@H](Cc3ccccc3)NC(=O)[C@H](CC(=O)O)NC(=O)CNC(=O)[C@H](CCCNC(=N)N)NC2=O)NC(=O)[C@@H](Cc2ccccc2)NC(=O)[C@H](CC(=O)O)NC(=O)CNC1=O [indium-111 labelled]  tissue uptake (female athymic nu/nu mice, lungs; intravenous, 0.5 h): 3.13 ± 0.47 %ID/g
N=C(N)NCCC[C@@H]1NC(=O)[C@H](CCCCNC(=O)CCOCCOCCOCCOCCNC(=O)CC[C@H](NC(=O)CCOCCOCCOCCOCCNC(=O)CN2CCN(CC(=O)O)CCN(CC(=O)O)CCN(CC(=O)O)CC2)C(=O)NCCOCCOCCOCCOCCC(=O)NCCCC[C@@H]2NC(=O)[C@@H](Cc3ccccc3)NC(=O)[C@H](CC(=O)O)NC(=O)CNC(=O)[C@H](CCCNC(=N)N)NC2=O)NC(=O)[C@@H](Cc2ccccc2)NC(=O)[C@H](CC(=O)O)NC(=O)CNC1=O [copper-64 labelled]  tissue uptake (athymic nude mouse, female, whole blood; iv, 0.5 h): 0.87 ± 0.22 %ID/g

Repeated from above:
N=C(N)NCCC[C@@H]1NC(=O)[C@H](CCCCNC(=O)CNC(=O)CNC(=O)CNC(=O)CC[C@H](NC(=O)CNC(=O)CNC(=O)CNC(=O)CN2CCN(CC(=O)O)CCN(CC(=O)O)CCN(CC(=O)O)CC2)C(=O)NCC(=O)NCC(=O)NCC(=O)NCCCC[C@@H]2NC(=O)[C@@H](Cc3ccccc3)NC(=O)[C@H](CC(=O)O)NC(=O)CNC(=O)[C@H](CCCNC(=N)N)NC2=O)NC(=O)[C@@H](Cc2ccccc2)NC(=O)[C@H](CC(=O)O)NC(=O)CNC1=O [indium-111 labelled]  tissue uptake (female athymic nu/nu mice, lungs; intravenous, 0.5 h): 3.13 ± 0.47 %ID/g
